Measurements collected from several papers.
Every numbered part comes from another study and shows a few of its results, in no order. Changes are numbered by the printed parent chain.

Series 1
Target: RNA binding protein fox-1 homolog 2, RRM domain, GST-SBP tag (RBFOX2, Homo sapiens, UniProt O43251-10, residues 100-194)
Method: RNA Bind-n-Seq
Form: RNA
Matrix: in vitro
Tested at: 365 nM
Setting: natural RNA segment, single round, ends assumed
Baseline: no-protein control
Direction: higher = stronger binding
Shared flanks, not repeated: GGGAGUUCUACAGUCCGACGAUC … UGGAAUUCUCGGGUGCCAA
Target sequence (chain): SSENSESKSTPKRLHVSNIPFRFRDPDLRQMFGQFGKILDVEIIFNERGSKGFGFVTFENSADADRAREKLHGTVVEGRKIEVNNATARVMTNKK
| Oligonucleotide | RBNS enrichment (R) |
| --- | --- |
| UUCCUUUUAUGCUAUCACACACUACUGUCACCGAGACACUGACAAAGUGCUGGGUUCUCCAAGAGCGAUGGCGGCGUCUGUGUAGGUGCUCGCCCACCGUUACCCUCUUC | 0.606 |
| AAGCAGAAACUCUGAAGAAAAGGAUUAUUUAAAGGACUCUAUGGGGAGAAAGAGAAGGCAACUCCUCCUUACCCCCCACACUGGUAAUCUUUCCAACCAGCAUCCCAGAC | 0.264 |
| AAACGAAAACCACUUUCCAGUAAUAUAUGGCAUUGCUGUCAACAUUAAGACUGCAGAGAUUUACAGAGCAUCCUUUCAAGAUCGGGGUCCGGAGGAGCAGCUUCGUGCUG | 0.397 |
| CCUGCCACAGCCACCUCCCUCCCUGGCCAUCCCAGAGCCGAGGCUCCCACUGUCCUCAGAGAGCCUGCAUGGAAAUGCUGUCCUCUUCCACUCUCCUCCUCUUUUUGAUA | 1.36 |
| CAUCUUCAGCAUCAUUGCAUUAAAGUGGUGUAAUCUCCUUCUCUACAUCUGUUGUCAGAGCCACUGAGUGCUGUGCUGCUCGACGUGAGGGUGAAAUGAUUGACUUGUGA | 0.569 |
| ACUGAGUAGCUGGCCACGGAGGCUUGCUCAUGGAGGUCUCCAUCCCCAACAUCCAGAGGCCAGAAGAAUUGGCAGCUGCCUACUUAAGGAAGCUUGGGUUUGAAGCCUGC | 0.483 |
| CCUGUCCUCCAGUAUUGCACCUGUAGCCGGAGCUAGGGCCACCCCAGUGCAGGGGCAAAGCAAACCUGAUGUCAGUCGUUUUGUCUUUUCUACCCCAACCUCACCCUCUC | 0.482 |
| AAAUGGCAACAAACUGCACAUGAUUUCACAAAUAUUAAAAAGUCUUUUAAAAAGUAUUGCCAAACAUUAAUGUUGAUUUCUAGUUAUUUAUUCUGGGAAUGUAUAGUAUU | 0.867 |
| AUGAAUGGGAUGUCUAAUGUAUUUCAAAAUCACCCAAAACUUUUGGCAAAUAAAAGCAUUUAAAAAGCCUUUCUGUACAGGAUUUUUAAAAUGUUAUCAGCUUAGUCUGA | 1.2 |
| CUAAACGCCUUUGAGCUUGUUGGUACCCAGAGAAAUAAACUAAAAUUGUAUGAAAAAAAAACUCUGCCUUCAAGCCUUUAAGGCAGGUUUUUAAGUCAUCAGCCAUAGUC | 0.658 |
| UAUCGGAUGCUCAUAACACCCCUGGCCUGGCCCCUUUACUGAGAAGACUCCUUGGAUAUUUCCCAAGAACCCCCCACAUACACCCCUCACAAGCCACCCCUCCUGAGAGG | 0.424 |
| AACCAGCUAGUUAGAAAACCAUUUAUUUUUCUUUCUUCUUUCCCCACUUGUUAGAGGUAGGGCUAUGAGGAAGCAAGGAUGGGAGGUGGGGUUGAGGUUUGGGAAGCAGG | 1.29 |

Series 2
Target: CCNF, cyclin fold, Cln2 fusion (human)
Method: yeast growth competition, sequencing
Matrix: yeast
Setting: strong parent motif
Baseline: not given
Direction: higher = stronger binding
Starting sequence: ORC1 docking peptide (human); PRARKRLELGNLG
| Change | normalised enrichment score |
| --- | --- |
| TRARKRLELGNLG [P1T] | 3.22 |
| PMARKRLELGNLG [R2M] | 4.03 |
| PRARKRLELGNKG [L12K] | 2.21 |
| PRARKMLELGNLG [R6M] | 2.36 |
| VRARKRLELGNLG [P1V] | 3.38 |
| PRARKRLELGILG [N11I] | 2.77 |
| PRARKRLVLGNLG [E8V] | 4.48 |
| DRARKRLELGNLG [P1D] | 4.06 |
| PRARKRLELSNLG [G10S] | 2.93 |
| PRARKRLSLGNLG [E8S] | 2.06 |
| CRARKRLELGNLG [P1C] | 6.61 |
| PRARKRLELGNVG [L12V] | 3.98 |
| PRARKRLELGDLG [N11D] | 4.23 |
| PRARKELELGNLG [R6E] | 1.68 |
| PRARKRLEPGNLG [L9P] | 0.505 |
| MRARKRLELGNLG [P1M] | 2.71 |
| PVARKRLELGNLG [R2V] | 2.96 |
| PRARKRLELFNLG [G10F] | 2.63 |
| PRTRKRLELGNLG [A3T] | 2.8 |
| PRARKRHELGNLG [L7H] | 0.428 |
| PRARKRLELGNLQ [G13Q] | 2.59 |
| PNARKRLELGNLG [R2N] | 4.39 |
| PRARKRLELGMLG [N11M] | 4.4 |

Series 3
Target: Ras GTPase-activating protein-binding protein 1, full length (G3BP1, Homo sapiens, UniProt Q13283)
Sequence of UniProt Q13283 (whole entry, looked up): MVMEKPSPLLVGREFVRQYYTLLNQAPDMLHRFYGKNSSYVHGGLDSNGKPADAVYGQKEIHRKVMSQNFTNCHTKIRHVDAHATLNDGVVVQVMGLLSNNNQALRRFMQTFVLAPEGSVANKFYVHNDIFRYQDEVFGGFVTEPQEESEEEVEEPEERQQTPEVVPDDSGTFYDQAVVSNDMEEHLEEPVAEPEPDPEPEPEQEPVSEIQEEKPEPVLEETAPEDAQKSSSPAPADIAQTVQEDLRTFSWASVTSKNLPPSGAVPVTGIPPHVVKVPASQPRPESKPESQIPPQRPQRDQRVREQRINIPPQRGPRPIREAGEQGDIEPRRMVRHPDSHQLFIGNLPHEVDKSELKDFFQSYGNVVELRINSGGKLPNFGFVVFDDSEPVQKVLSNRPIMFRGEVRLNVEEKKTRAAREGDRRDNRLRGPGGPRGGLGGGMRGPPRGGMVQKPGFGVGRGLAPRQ
Method: RNA Bind-n-Seq
Form: RNA
Matrix: in vitro
Tested at: 200 nM
Setting: whole 134-nt RNA, ends assumed
Together with: 150 mM LiCl
Baseline: input library
Direction: higher = stronger binding
Library: 7-deaza-guanosine replaces G
Shared flanks, not repeated: GGGAGUUCUACAGUCCGACGAUC … UGGAAUUCUCGGGUGUCAAGG
| Oligonucleotide | log2 enrichment |
| --- | --- |
| GUCCUGUGCUACACAUCGUAUGUACCGAAUCGGGUUUUUGGGAAAGGGAAAAAAAGGGAAAGUAUUAUGUUACGCCGUUCGGAUCUGCAC | -0.598 |
| CAAGUCCUGUGCUACACAUCGUAUGUACCGAAUCAAAUUUAAAUUUAAAUUUAAAAAAGUAUUAUGUUACGCCGUUCGGAUCUGCACUUC | -1.79 |
| AGUCCUGUGCUACACAUCGUAUGUACCGAAUCAAACCCCCAAAUUUUUAAACCCAAAAAAGUAUUAUGUUACGCCGUUCGGAUCUGCACU | 1.68 |
| UUUGUGAGACAUGUGAAAGGAGGACAUGGUCACAGUCAUGGACAUGGACACGCUCACAGUCAUACACGUGGAAGUCAUGGACAUGGAAGA | -3.56 |
| CUGUGCUACACAUCGUAUGUACCGAAUCAAAUUUUUUUAAAUUUUUUUAAACCCCCCCAAAAAAGUAUUAUGUUACGCCGUUCGGAUCUG | 1.04 |
| UGGAGCUACAGAUGGUGUCCUUCCUGCCAGGUGUGUGUGGAGGCCAGUAUGAAGCUGAAAAAGCAGGUGACAGUGUGUGGGGCUGCCAUC | 0.748 |
| ACCAUGCAGGUGGGCAUCUUUGGGAAGUGGGGCAAGGGGGGGAUAGGGAGGGGGGUAACACUUUGGGAACAGGUGGUCCCUGGUCGUUUC | 0.302 |
| CACAGACAACACGCACCCACACAGACACAGAGGGAAGGGGUUGGGAUGGGGACAGGGUGCACAGCAGGGCGGGGUAGGACCGCAGCCCCU | -0.555 |
| CAAGUCCUGUGCUACACAUCGUAUGUACCGAAUCGGGUUUUUUUGGGAGGGAGGGAAAGUAUUAUGUUACGCCGUUCGGAUCUGCACUUC | 0.414 |
| CUCAAGUCCUGUGCUACACAUCGUAUGUACCGAAUCGGGCCGGGCCGGGCCGGAAAGUAUUAUGUUACGCCGUUCGGAUCUGCACUUCCA | 0.789 |
| UAACUUUAGAGGAGGAUCUGAUGGAUAUGGCAGUGGACGUGGAUUUGGGGAUGGCUAUAAUGGGUAUGGAGGAGGACCUCGAGGUGGCAA | 0.316 |

Series 4
Target: ABI1, truncated, D143A, DHFR fusion (Arabidopsis thaliana)
Method: DHFR PCA, deep sequencing
Matrix: yeast
Setting: methotrexate growth selection, single substitutions
Together with: (+)-ABA 58 µM
Baseline: wild-type fitted maximum
Direction: higher = stronger binding
Starting sequence: PYL1, truncated, DHFR fusion (Arabidopsis thaliana); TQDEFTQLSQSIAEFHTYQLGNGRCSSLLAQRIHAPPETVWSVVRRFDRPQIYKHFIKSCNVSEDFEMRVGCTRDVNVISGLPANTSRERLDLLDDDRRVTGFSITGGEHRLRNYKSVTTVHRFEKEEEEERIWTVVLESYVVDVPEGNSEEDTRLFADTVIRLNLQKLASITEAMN
| Change | relative binding score [%] |
| --- | --- |
| E174V | 69.6 |
| E38G | 73.6 |
| R98Q | 84 |
| R45F | -9.34 |
| F66V | 75.6 |
| R111Q | 54 |
| R32H | 83.8 |
| L169P | 13.3 |
| Y53E | -1.49 |
| S11C | 88.4 |
| N61H | 87.5 |
| L164I | 77.6 |
| S104K | 31.9 |
| N61F | 83 |
| R113H | 90.5 |
| H110N | 94.4 |
| A84Q | -14.7 |
| R123F | 66.6 |
| L94Q | 31.7 |
| I133G | 97.4 |
| K126F | 93.2 |

Series 5
Target: Sal-like protein 4, full length isoform A (SALL4, Homo sapiens, UniProt Q9UJQ4, residues 1-1053)
Sequence of UniProt Q9UJQ4 (whole entry, looked up): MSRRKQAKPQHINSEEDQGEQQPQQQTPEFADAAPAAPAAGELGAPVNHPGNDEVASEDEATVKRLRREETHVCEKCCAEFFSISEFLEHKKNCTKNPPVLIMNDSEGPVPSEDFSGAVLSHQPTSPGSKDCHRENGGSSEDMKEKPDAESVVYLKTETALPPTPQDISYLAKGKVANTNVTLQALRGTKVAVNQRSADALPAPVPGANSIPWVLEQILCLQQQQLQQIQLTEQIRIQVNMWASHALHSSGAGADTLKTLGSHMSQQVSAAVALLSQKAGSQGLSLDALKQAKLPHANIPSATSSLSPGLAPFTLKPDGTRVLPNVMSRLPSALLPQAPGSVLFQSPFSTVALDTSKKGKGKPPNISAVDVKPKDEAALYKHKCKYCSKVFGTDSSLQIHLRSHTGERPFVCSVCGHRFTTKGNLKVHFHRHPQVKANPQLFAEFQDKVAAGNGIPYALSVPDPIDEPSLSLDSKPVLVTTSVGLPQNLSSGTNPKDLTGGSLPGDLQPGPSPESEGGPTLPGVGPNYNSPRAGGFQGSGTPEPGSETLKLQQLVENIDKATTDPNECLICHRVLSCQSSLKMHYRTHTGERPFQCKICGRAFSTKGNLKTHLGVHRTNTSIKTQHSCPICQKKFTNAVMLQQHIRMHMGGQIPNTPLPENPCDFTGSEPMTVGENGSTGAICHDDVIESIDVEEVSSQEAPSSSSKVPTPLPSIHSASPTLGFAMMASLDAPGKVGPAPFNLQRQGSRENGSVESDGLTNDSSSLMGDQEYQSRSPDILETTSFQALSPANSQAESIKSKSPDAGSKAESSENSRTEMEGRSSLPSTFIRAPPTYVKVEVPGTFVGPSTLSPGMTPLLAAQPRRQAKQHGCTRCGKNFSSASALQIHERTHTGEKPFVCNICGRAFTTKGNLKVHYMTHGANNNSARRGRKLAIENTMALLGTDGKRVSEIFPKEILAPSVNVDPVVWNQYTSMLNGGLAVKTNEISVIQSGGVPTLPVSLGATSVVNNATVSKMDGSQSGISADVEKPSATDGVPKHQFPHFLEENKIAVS
Method: universal PBM
Form: double-stranded DNA, one strand shown
Matrix: in vitro
Tested at: 600 nM
Setting: 8-mer, flanks averaged, mean of replicates
Direction: higher = stronger binding
| Oligonucleotide | E-score |
| --- | --- |
| AGTGGTGG | -0.0296 |
| CCTGTCCG | -0.25 |
| ACTCGACT | -0.0259 |
| ATCGGATC | -0.0175 |
| CAGTACGA | 0.089 |
| GCAAACAA | 0.0731 |
| CCAATGAA | -0.0921 |
| ACGCCAGC | -0.381 |
| AACAAGAC | 0.0767 |
| AGGGGAAT | 0.017 |
| AAACTCCC | -0.0631 |
| CGGGCTAG | -0.273 |
| ACGGATCT | -0.0889 |
| ACTAGAAC | 0.0898 |
| AAACATAG | 0.155 |
| ATACTAAG | 0.186 |

Excerpt of the above (series 2):
| Change | normalised enrichment score |
| --- | --- |
| PRARKRLELSNLG [G10S] | 2.93 |
| PRARKRLELGNKG [L12K] | 2.21 |
| PRARKELELGNLG [R6E] | 1.68 |
| DRARKRLELGNLG [P1D] | 4.06 |
| PRTRKRLELGNLG [A3T] | 2.8 |
| PRARKRLVLGNLG [E8V] | 4.48 |
| PRARKRLELFNLG [G10F] | 2.63 |
| PRARKRHELGNLG [L7H] | 0.428 |
| PRARKRLELGNVG [L12V] | 3.98 |
| VRARKRLELGNLG [P1V] | 3.38 |
